Experimental data of several laboratories.
Protocols differ between the studies behind these lines.
Organism: Pseudomonas aeruginosa

`CC[C@H](C)[C@H](NC(=O)[C@H](CCCNC(=N)N)NC(=O)[C@H](CCCCN)NC(=O)[C@H](CC(C)C)NC(=O)[C@H](CC(C)C)NC(=O)CN)C(=O)N[C@@H](CCCCN)C(=O)N[C@H](C(=O)N[C@@H](CC(C)C)C(=O)N[C@@H](CC(C)C)C(=O)NCCCC[C@H](NC(=O)[C@H](CC(C)C)NC(=O)[C@H](CC(C)C)NC(=O)[C@@H](NC(=O)[C@H](CCCCN)NC(=O)[C@@H](NC(=O)[C@H](CCCNC(=N)N)NC(=O)[C@H](CCCCN)NC(=O)[C@H](CC(C)C)NC(=O)[C@H](CC(C)C)NC(=O)CN)[C@@H](C)CC)[C@@H](C)O)C(=O)NCCCC[C@H](NC(=O)[C@H](CCCCNC(=O)[C@H](CC(C)C)NC(=O)[C@H](CC(C)C)NC(=O)[C@@H](NC(=O)[C@H](CCCCN)NC(=O)[C@@H](NC(=O)[C@H](CCCNC(=N)N)NC(=O)[C@H](CCCCN)NC(=O)[C@H](CC(C)C)NC(=O)[C@H](CC(C)C)NC(=O)CN)[C@@H](C)CC)[C@@H](C)O)NC(=O)[C@H](CC(C)C)NC(=O)[C@H](CC(C)C)NC(=O)[C@@H](NC(=O)[C@H](CCCCN)NC(=O)[C@@H](NC(=O)[C@H](CCCNC(=N)N)NC(=O)[C@H](CCCCN)NC(=O)[C@H](CC(C)C)NC(=O)[C@H](CC(C)C)NC(=O)CN)[C@@H](C)CC)[C@@H](C)O)C(N)=O)[C@@H](C)O` has an FIC index of 0.25 (checkerboard; ATCC 27853; added: rifampicin).
`CC(CCC(=O)[O-])C1CCC2C3CCC4CC(O)CCC4(C)C3CCC12C.C[N+](C)(C)CC(O)CC(=O)O` (stereo not drawn): antibacterial activity “inactive” (TISTR357; 1 mg per disc, 18 to 24 h, 37 °C).
`CC[C@H](C)[C@H](NC(=O)[C@H](Cc1c[nH]cn1)NC(=O)[C@H](CCCCNC(=O)[C@@H](NC(=O)[C@H](CCCCN)NC(=O)CSC[C@H](NC(=O)[C@H](Cc1ccccc1)NC(=O)[C@H](CCCCNC(=O)[C@H](CC(C)C)NC(=O)[C@@H]1CCCN1C(=O)[C@H](CCCCN)NC(=O)C[C@@H]1O[C@@H](C)[C@@H](O)[C@@H](O)[C@@H]1O)NC(=O)[C@H](CC(C)C)NC(=O)[C@@H]1CCCN1C(=O)[C@H](CCCCN)NC(=O)c1ccc(O[C@@H]2O[C@H](CO)[C@H](O)[C@H](O)[C@H]2O)cc1)C(N)=O)[C@@H](C)CC)NC(=O)[C@@H](NC(=O)[C@H](CCCCN)NC(=O)CSC[C@H](NC(=O)[C@H](Cc1ccccc1)NC(=O)[C@H](CCCCNC(=O)[C@H](CC(C)C)NC(=O)[C@@H]1CCCN1C(=O)[C@H](CCCCN)NC(=O)C[C@@H]1O[C@@H](C)[C@@H](O)[C@@H](O)[C@@H]1O)NC(=O)[C@H](CC(C)C)NC(=O)[C@@H]1CCCN1C(=O)[C@H](CCCCN)NC(=O)c1ccc(O[C@@H]2O[C@H](CO)[C@H](O)[C@H](O)[C@H]2O)cc1)C(N)=O)[C@@H](C)CC)C(N)=O` has an MBIC of 30 µM (biofilm formation; PAO1; 24 h).
With `Nc1ccccc1C(=O)NS(=O)(=O)OC[C@H]1O[C@@H](n2cnc3c(N)ncnc32)[C@H](O)[C@@H]1O` the inhibition was 67% (HHQ production, LC-MS/MS; PA14; 1500 µM, 8 h).
With `COc1ccc(-c2ccn(CC[C@](C)(C(=O)NO)S(C)(=O)=O)c(=O)c2)c(F)c1` the MIC increase was 16 fold (PAO397 efflux-deficient, lpxC promoter mutant; baseline: parent strain).
`CCCCCC(=O)NCC(=O)N[C@@H](CC(C)C)C(=O)N[C@@H](CC(C)C)C(=O)N[C@@H](CCCCN)C(=O)N[C@@H](CCCNC(=N)N)C(=O)N[C@H](C(=O)N[C@@H](CCCCN)C(=O)N[C@H](C(=O)N[C@@H](CC(C)C)C(=O)N[C@@H](CC(C)C)C(=O)NCCCC[C@H](NC(=O)[C@H](CCCCNC(=O)[C@H](CC(C)C)NC(=O)[C@H](CC(C)C)NC(=O)[C@@H](NC(=O)[C@H](CCCCN)NC(=O)[C@@H](NC(=O)[C@H](CCCNC(=N)N)NC(=O)[C@H](CCCCN)NC(=O)[C@H](CC(C)C)NC(=O)[C@H](CC(C)C)NC(=O)CNC(=O)CCCCC)[C@@H](C)CC)[C@@H](C)O)NC(=O)[C@H](CC(C)C)NC(=O)[C@H](CC(C)C)NC(=O)[C@@H](NC(=O)[C@H](CCCCN)NC(=O)[C@@H](NC(=O)[C@H](CCCNC(=N)N)NC(=O)[C@H](CCCCN)NC(=O)[C@H](CC(C)C)NC(=O)[C@H](CC(C)C)NC(=O)CNC(=O)CCCCC)[C@@H](C)CC)[C@@H](C)O)C(N)=O)[C@@H](C)O)[C@@H](C)CC` has an FIC index of 0.375 (checkerboard; ATCC 27853; added: rifampicin).
For `CC[C@H](C)[C@H](NC(=O)[C@H](CCCCN)NC(=O)[C@H](CCCCN)NC(=O)[C@H](CC(C)C)NC(=O)[C@H](CCCCN)NC(=O)[C@H](CCC(=O)O)NC(=O)[C@H](CCCCN)NC(=O)[C@@H](NC(=O)[C@H](CCCCN)NC(=O)[C@H](CC(N)=O)NC(=O)[C@H](CCCNC(=N)N)NC(=O)[C@H](Cc1ccccc1)NC(=O)[C@H](CCCCN)NC(=O)[C@H](CCCNC(=N)N)NC(=O)[C@H](CC(C)C)NC(=O)[C@H](CCCNC(=N)N)NC(=O)[C@H](CCCCN)NC(=O)[C@H](CCCNC(=N)N)NC(=O)[C@H](CC(C)C)NC(=O)[C@@H](N)CC(C)C)[C@@H](C)CC)C(=O)NCC(=O)N[C@@H](CCC(N)=O)C(=O)N[C@@H](CCCCN)C(=O)N[C@H](C(=O)N[C@@H](CCC(N)=O)C(=O)NCC(=O)N[C@@H](Cc1ccccc1)C(=O)N[C@H](C(=O)N1CCC[C@H]1C(=O)N[C@@H](CCCCN)C(=O)N[C@@H](CC(C)C)C(=O)N[C@H](C(=O)N1CCC[C@H]1C(=O)N[C@@H](CCCNC(=N)N)C(=O)N[C@H](C(=O)N[C@@H](CCC(=O)O)C(=O)N[C@@H](CO)C(=O)O)[C@@H](C)O)C(C)C)C(C)C)[C@@H](C)CC`, the lethal concentration was 2.96 µM (inhibition zone; FRD1; LB agar, overnight).
For `O=C1NC(=O)c2c(NCCCc3cccc(O)c3)cccc21`, the survival reduction was about 50 fold (PAO1; concentration not given, 18 h, added: norfloxacin 0.9 µg/mL; baseline: norfloxacin alone).
`CCCCCCCCCC(=O)NCCCC[C@H](NC(=O)[C@H](CCCCN)NC(=O)[C@@H]1CSCC(=O)N[C@@H](CCCCN)C(=O)N[C@@H](CC(C)C)C(=O)N[C@@H](CCCCN)C(=O)N[C@H]2CCCCNC(=O)[C@H](CCCCN)NC(=O)[C@H](CC(C)C)NC(=O)[C@H](CCCCN)NC(=O)CSC[C@H](NC(=O)[C@H](CC(C)C)NC(=O)[C@H](CC(C)C)NC(=O)[C@H](CCCCN)NC2=O)C(=O)N[C@@H](CC(C)C)C(=O)N[C@@H](CC(C)C)C(=O)N[C@@H](CC(C)C)C(=O)N1)C(N)=O`: “minimal biofilm inhibitory concentration” 128 µg/mL (PAO1; 24 to 25 h).
With `CC[C@H](C)[C@H](NC(=O)[C@H](CCCCN)NC(=O)[C@H](CCCCN)NC(=O)[C@H](CC(C)C)NC(=O)[C@H](CCCCN)NC(=O)[C@H](CCC(=O)O)NC(=O)[C@H](CCCCN)NC(=O)[C@@H](NC(=O)[C@H](CCCCN)NC(=O)[C@H](CC(N)=O)NC(=O)[C@H](CCCNC(=N)N)NC(=O)[C@H](Cc1ccccc1)NC(=O)[C@H](CCCCN)NC(=O)[C@H](CCCNC(=N)N)NC(=O)[C@H](CC(C)C)NC(=O)[C@H](CCCNC(=N)N)NC(=O)[C@H](CCCCN)NC(=O)[C@H](CCCNC(=N)N)NC(=O)[C@H](CC(C)C)NC(=O)CN)[C@@H](C)CC)C(=O)NCC(=O)N[C@@H](CCC(N)=O)C(=O)N[C@@H](CCCCN)C(=O)N[C@H](C(=O)N[C@@H](CCC(N)=O)C(=O)NCC(=O)N[C@@H](Cc1ccccc1)C(=O)N[C@H](C(=O)N1CCC[C@H]1C(=O)N[C@@H](CCCCN)C(=O)N[C@@H](CC(C)C)C(=O)N[C@@H](C)C(=O)N1CCC[C@H]1C(=O)N[C@@H](CCCNC(=N)N)C(=O)N[C@H](C(=O)N[C@@H](CC(=O)O)C(=O)N[C@@H](Cc1ccc(O)cc1)C(=O)O)[C@@H](C)O)C(C)C)[C@@H](C)CC` the lethal concentration was 3.03 µM (inhibition zone; FRD1; LB agar, overnight).
With `CC[C@H](C)[C@H](NC(=O)[C@H](Cc1c[nH]cn1)NC(=O)[C@H](CCCCNC(=O)[C@@H](NC(=O)[C@H](CCCCN)NC(=O)CSC[C@H](NC(=O)[C@H](Cc1ccccc1)NC(=O)[C@H](CCCCNC(=O)[C@H](CC(C)C)NC(=O)[C@@H]1CCCN1C(=O)[C@H](CCCCN)NC(=O)CCS[C@@H]1O[C@H](CO)[C@H](O)[C@H](O)[C@H]1O)NC(=O)[C@H](CC(C)C)NC(=O)[C@@H]1CCCN1C(=O)[C@H](CCCCN)NC(=O)C[C@@H]1O[C@@H](C)[C@@H](O)[C@@H](O)[C@@H]1O)C(N)=O)[C@@H](C)CC)NC(=O)[C@@H](NC(=O)[C@H](CCCCN)NC(=O)CSC[C@H](NC(=O)[C@H](Cc1ccccc1)NC(=O)[C@H](CCCCNC(=O)[C@H](CC(C)C)NC(=O)[C@@H]1CCCN1C(=O)[C@H](CCCCN)NC(=O)CCS[C@@H]1O[C@H](CO)[C@H](O)[C@H](O)[C@H]1O)NC(=O)[C@H](CC(C)C)NC(=O)[C@@H]1CCCN1C(=O)[C@H](CCCCN)NC(=O)C[C@@H]1O[C@@H](C)[C@@H](O)[C@@H](O)[C@@H]1O)C(N)=O)[C@@H](C)CC)C(N)=O` the MBIC was over 45 µM (biofilm formation; PAO1; 24 h).
`CC(CCCOC(=O)CCC[N+](C)(C)C)C1CCC2C3CCC4CC(OC(=O)CCC[N+](C)(C)C)CCC4(C)C3CCC12C` (stereo not drawn) gave a selectivity index of 3 (ATCC 27853; baseline: HC50 over MIC).

Excerpt of the above:
With `Nc1ccccc1C(=O)NS(=O)(=O)OC[C@H]1O[C@@H](n2cnc3c(N)ncnc32)[C@H](O)[C@@H]1O` the inhibition was 67% (HHQ production, LC-MS/MS; PA14; 1500 µM, 8 h).
With `COc1ccc(-c2ccn(CC[C@](C)(C(=O)NO)S(C)(=O)=O)c(=O)c2)c(F)c1` the MIC increase was 16 fold (PAO397 efflux-deficient, lpxC promoter mutant; baseline: parent strain).
